Measured values gathered from unrelated publications.
A part holds a random share of what one study measured. Changes are numbered by the printed parent chain.

Block 1 — technique: protein binding microarray; form: double-stranded DNA, one strand shown; matrix: in vitro; tested at: not given; reference: not given; direction: higher = stronger binding
Target: Histone acetyltransferase KAT6A, winged helix 1, GST fusion (KAT6A, Homo sapiens, UniProt Q92794, residues 1-85)
Notes: 8-mer, flanks averaged, mean of 2 arrays, mostly near background
Construct (chain): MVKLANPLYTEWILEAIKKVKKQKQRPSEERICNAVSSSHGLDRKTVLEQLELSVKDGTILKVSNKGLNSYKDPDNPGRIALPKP
For `CACATGGC`, the E-score was 0.0969.
The E-score of `AATTAGGC` is reported as -0.102.
`AGAGTGAG` has an E-score of -0.208.
`GATACATC` has an E-score of -0.115.
The E-score of `GGTACTCA` is reported as -0.104.

Block 2 — target: CCNB2, cyclin fold, Cln2 fusion (human); technique: yeast growth competition, sequencing; matrix: yeast; notes: weak parent motif; reference: not given; direction: higher = stronger binding
Starting sequence: CDC6 docking peptide (human); TLKGRRLVFDNQL; partner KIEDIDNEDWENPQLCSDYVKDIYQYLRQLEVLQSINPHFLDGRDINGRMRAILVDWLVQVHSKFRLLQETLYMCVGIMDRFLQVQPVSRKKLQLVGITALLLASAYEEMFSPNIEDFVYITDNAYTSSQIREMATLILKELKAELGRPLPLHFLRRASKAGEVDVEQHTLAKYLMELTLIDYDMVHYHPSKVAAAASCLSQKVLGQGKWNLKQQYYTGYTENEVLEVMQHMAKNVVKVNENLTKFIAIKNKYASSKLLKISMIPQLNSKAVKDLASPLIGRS
Under “normalised enrichment score”, `L2K` is recorded as 0.278.
`L2S`: “normalised enrichment score” -0.388.
Under “normalised enrichment score”, `R5Q` is recorded as -0.569.
`Q12I`: “normalised enrichment score” 0.405.
For `T1L`, “normalised enrichment score” read -0.00134.
`G4M`: “normalised enrichment score” 0.575.
`D10W`: “normalised enrichment score” 0.279.

Block 3 — technique: RNA Bind-n-Seq; form: RNA; matrix: in vitro; tested at: 20 nM; notes: 6-mer, flanks averaged, single round; together with: 150 mM KCl; reference: input library; direction: higher = stronger binding
Target: TAR DNA-binding protein 43, full length, His tag (TARDBP, Homo sapiens, UniProt Q13148, residues 1-414)
`AACCGA` — result for “6-mer enrichment (R)”: 0.66.
`GUUGUU` — result for “6-mer enrichment (R)”: 0.793.
`CUGAAU` — result for “6-mer enrichment (R)”: 0.678.
For `GGAAUC`, “6-mer enrichment (R)” read 0.878.
For `AGCAGU`, “6-mer enrichment (R)” read 0.843.
`GUUUUC` — result for “6-mer enrichment (R)”: 0.615.
`GCUGAU` — result for “6-mer enrichment (R)”: 0.793.

Mixed results
`PhoQ, residues 284 288 289 292 302 303 SSTLLI` has a fold induction of 0.788 (PhoP, residues 12 14 15 18 19 NIMAP (Escherichia coli, UniProt P23836); Sort-seq, item: YFP reporter; E. coli; PhoQ-PhoP variant library, together with: 10 µM Mg2+; reference: high Mg2+ state, higher = stronger signaling).

For quick reference, copied from above (block 2):
For `T1L`, “normalised enrichment score” read -0.00134.
`G4M`: “normalised enrichment score” 0.575.
`D10W`: “normalised enrichment score” 0.279.
